{"data": "Results from different studies", "note": "Each numbered part is a random draw from the data of one study; scales do not carry over between parts."}
{"data": "Series 1", "target": "Fragile X messenger ribonucleoprotein 1, C-terminal low-complexity region (Fmr1, Mus musculus, UniProt P35922)", "method": "RNA Bind-n-Seq", "form": "RNA", "sample": "in vitro", "tested at": "200 nM", "setting": "whole 134-nt RNA, ends assumed", "with": "150 mM LiCl", "baseline": "input library", "direction": "higher = stronger binding", "each molecule": "7-deaza-guanosine replaces G", "constant ends, left off below": "GGGAGUUCUACAGUCCGACGAUC … UGGAAUUCUCGGGUGUCAAGG"}
{"Strand": "CACAGACAACACGCACCCACACAGACACAGAGGGAAGGGGUUGGCAUGGGGACAGGGUGCACAGCAGGGCGGGGUAGGACCCCAGCCCCU", "log2 enrichment": -0.909}
{"Strand": "CACAGACAACAUGCACCCACACAGACACAGAGGGAAGGGGUUGGGAUGGGGACAGGGUGCACAGCAGGGCGGGGUAGGACCCCAGCCCCU", "log2 enrichment": -0.771}
{"Strand": "UCCUGUGCUACACAUCGUAUGUACCGAAUCGGGAAAAAAGGGAAAAAAGGGAAAAAAGGGAAAGUAUUAUGUUACGCCGUUCGGAUCUGC", "log2 enrichment": 0.277}
{"Strand": "UCAAGUCCUGUGCUACACAUCGUAUGUACCGAAUCGGAAAAAGGAAAAAGGUGGAAAGUAUUAUGUUACGCCGUUCGGAUCUGCACUUCC", "log2 enrichment": -0.833}
{"Strand": "UGGCCCUGGUGGCAUGCGGGGAGGAAGAGGUGGCCUCAUGGAUCGUGGUGGUACCGGUGGAAUGUUCAGAGGUGGCCGUGGUGGAGACAG", "log2 enrichment": -0.271}
{"Strand": "CAAGUCCUGUGCUACACAUCGUAUGUACCGAAUCGGGGUUUGGGGUGGGGUGGGGAAAGUAUUAUGUUACGCCGUUCGGAUCUGCACUUC", "log2 enrichment": -0.571}
{"Strand": "CACAGACAACACGCACCCACACAGACACAGAGGGAAGGGGUUGGGAUGGGGACAGGGUGCACAGCAGGGCAAAGUAGGACCCCAGCCCCU", "log2 enrichment": -0.0199}
{"Strand": "AGUCCUGUGCUACACAUCGUAUGUACCGAAUCGGGCCCCCGGCCCCCGGGCCCCCGGGAAAGUAUUAUGUUACGCCGUUCGGAUCUGCAC", "log2 enrichment": -2.19}
{"Strand": "GUCCUGUGCUACACAUCGUAUGUACCGAAUCAAACCCCCCCAAACCCAAACCCCCAAAAAAGUAUUAUGUUACGCCGUUCGGAUCUGCAC", "log2 enrichment": 0.704}
{"Strand": "ACCAUGCAGGUGGGCAUCUUUGGGAAGUGGGGCAAGGGGGGGAUAGGGAGGGGGGUAACACUUUCGGAACAGGUGGUCCCAGGUCGUUUC", "log2 enrichment": 1.33}
{"Strand": "UGGCCCUGGUGGCAUGCGGGGAGGAAGAGGUGGCCUCAUGGAUGGUGGUGGUCCCGGUGGAAUGUUCAGAGGUGGCCGUGGUGGAGACAG", "log2 enrichment": 0.362}
{"data": "Series 2", "target": "Interferon regulatory factor 5, full length, phosphomimetic (IRF5, Homo sapiens, UniProt Q13568-2, residues 1-514, S451D/S453D/S456D/S462D)", "method": "protein-binding microarray", "form": "double-stranded DNA, one strand shown", "sample": "in vitro", "tested at": "940 nM top", "setting": "60-bp whole probe", "with": "salmon DNA 0.4 mg/ml", "baseline": "random background probes", "direction": "higher = stronger binding", "constant ends, left off below": "GCCTAGCAC … GTCTTGATTCGCTTGACGCTGCTG"}
{"Strand": "GACGGTTCCGACTTTCGGGACGTGCTA", "fitted relative affinity": "1.01 z-score"}
{"Strand": "GACGGACTGGACAGTGGGGACGTGCTA", "fitted relative affinity": "0.00196 z-score"}
{"Strand": "TTACATTTCAGTTCCGATTAGTGCTAG", "fitted relative affinity": "1.86 z-score"}
{"Strand": "GTAGGACTGCTTCTCCTTTAGTGCTAG", "fitted relative affinity": "-0.0545 z-score"}
{"Strand": "TTACATATCAGTATCGATTAGTGCTAG", "fitted relative affinity": "5.58 z-score"}
{"Strand": "CCAGTTTTCTTTTCATTACTGTGCTAG", "fitted relative affinity": "2.5 z-score"}
{"Strand": "GTTTGTCCCTATTTAAGATAGTGCTAG", "fitted relative affinity": "0.775 z-score"}
{"Strand": "TCAACATTGCACAATCTTACTGTGCTA", "fitted relative affinity": "0.393 z-score"}
{"Strand": "GACGGTCTCGGAGTGGGGACGTGCTAG", "fitted relative affinity": "0.24 z-score"}
{"Strand": "TTAGGTATCGACAATCGGTTAGTGCTA", "fitted relative affinity": "4.55 z-score"}
{"Strand": "GACGGTATCCTTTTCATGACGTGCTAG", "fitted relative affinity": "0.696 z-score"}
{"Strand": "TAAGAACTGGGGACTGGATTAGTGCTA", "fitted relative affinity": "-0.018 z-score"}
{"Strand": "GAAGATTCCAGTTTCGAGACGTGCTAG", "fitted relative affinity": "4.01 z-score"}
{"Strand": "GACGGACTGGGCCTCGGGACGTGCTAG", "fitted relative affinity": "-0.723 z-score"}
{"Strand": "TTAGATATCGGTTTCGGTTAGTGCTAG", "fitted relative affinity": "8.72 z-score"}
{"Strand": "GACGGACTGGACACTGTGGACGTGCTA", "fitted relative affinity": "-0.393 z-score"}
{"Strand": "GAGGATCTCAGTCTCGAGACGTGCTAG", "fitted relative affinity": "1.04 z-score"}
{"Strand": "GCCATTGTGGGTCTTGCAGAGTGCTAG", "fitted relative affinity": "-0.587 z-score"}
{"Strand": "GACGGACTGCTTTCCCTGACGTGCTAG", "fitted relative affinity": "-0.216 z-score"}
{"Strand": "TTAGGTTTCGAGACTGGGTTAGTGCTA", "fitted relative affinity": "7.12 z-score"}
{"Strand": "TCATATAGGTTGTTTCTAACTGTGCTA", "fitted relative affinity": "0.741 z-score"}
{"Strand": "TCATATATGTGTATATAACTGTGCTAG", "fitted relative affinity": "-0.124 z-score"}
{"Strand": "TCAATTACCTCATCTTTCACTGTGCTA", "fitted relative affinity": "1.29 z-score"}
{"Strand": "TGTGCTTTCCTGATGACCCTGTGCTAG", "fitted relative affinity": "0.391 z-score"}
{"Strand": "TCATTCCTAATTCTCTTACTGTGCTAG", "fitted relative affinity": "1.18 z-score"}
{"data": "Series 3", "target": "RING finger protein unkempt homolog, zinc fingers 1-6, GST-SBP tag (UNK, Homo sapiens, UniProt Q9C0B0, residues 30-357)", "method": "RNA Bind-n-Seq", "form": "RNA", "sample": "in vitro", "tested at": "not given", "setting": "RNA with constant flanks, human and mouse sites, ends assumed", "baseline": "input RNA pool", "direction": "higher = stronger binding", "constant ends, left off below": "GGGAGUUCUACAGUCCGACGAUC … CAACAGAGGAUUGAGCAUCA", "UniProt Q9C0B0, sequence (30-357, looked up)": "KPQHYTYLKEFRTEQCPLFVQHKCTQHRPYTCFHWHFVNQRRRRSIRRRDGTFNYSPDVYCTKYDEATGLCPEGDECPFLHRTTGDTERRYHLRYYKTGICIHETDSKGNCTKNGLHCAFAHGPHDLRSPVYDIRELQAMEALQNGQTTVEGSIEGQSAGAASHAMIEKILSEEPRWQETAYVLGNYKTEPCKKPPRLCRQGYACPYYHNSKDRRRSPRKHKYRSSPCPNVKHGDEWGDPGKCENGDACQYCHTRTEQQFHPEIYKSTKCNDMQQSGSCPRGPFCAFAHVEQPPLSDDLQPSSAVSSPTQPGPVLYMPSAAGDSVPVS"}
{"Strand": "CUCUCCCCUGAUAUCUGGAUGUAUAUUCUGCUGGCUUACUUGGGUGUCAGUUGUGUGCUCUUUGUCAUAGCCAGGUUUAGUCCUUAUGAGUGGUAUAAUCCACACCCUUGCAACCCUGAC", "bound/input enrichment [ratio]": 1.22}
{"Strand": "UUUACGACUGAAGACAAUGGGAAAGAAAAUAAAACUCCCUCCUCUGAUGCACAGGAUAAGCAGUUUGGUACUUGGAGACUGAGAGUCACACCUGUCGAUUACCUUCUGGGAGUGGCUGAC", "bound/input enrichment [ratio]": 0.234}
{"Strand": "GGUUGUUUGUUUGUUUGUUUGUUUUGCCGCCCUGGACACAUGUUUGCCUCCUCCAAGAAUUUCUGCGGGGAUUUGUAUCCCAUGCCUUCGUCUUCUCCUCCCCGUCCAACUCCCUGGAGA", "bound/input enrichment [ratio]": 0.809}
{"Strand": "GCAAAAGUUUAUAUCAUAUUGGAUCAACCUGUGACUGCUUUAAAUCUAUUUAAACAAGGCUUAGAUAAGUUUCCAGGAGAGGUGACCCUGCUUUGUGGAAUUGCCAGGAUCUAUGAGGAA", "bound/input enrichment [ratio]": 0.297}
{"Strand": "CACCCCAAAGGUCGCGAUAAUAUUAUUGACCUCUUCCUUUAUCAGCCACAAUAUCUUAAUGCAAUUCAGACAAUGUGUCCACACAUUCUUCGCUAUUUGACUACAGCAGUCAUAACAAAC", "bound/input enrichment [ratio]": 0.586}
{"Strand": "GACCUGUCUUCUCUUGUAUCAGCCAGGGACAGAGAAUCACAAGGACAUCUCCAUUGAGAAGCAGAAGGGCCUGGGAAGCCUCCAUUGGGGAUGUGUCUAUGAGGGAGUGUCAGCCACUCC", "bound/input enrichment [ratio]": 0.395}
{"Strand": "UAUAGCAAGAUUGUUUGCAUACUUUUGUAAUGAAGGGGAGUGUCCAGUGGAAGGAUUUUUAAAAUUAUCUUAUGGAUAGCUCAAGUCUCUGCCAUUUGUAAUUUUUGGCUCUAAGCUCCG", "bound/input enrichment [ratio]": 0.612}
{"Strand": "CAGUUCCAAGAUCCAGACUUUGGUGGUCUGUCUGGUGGAAGGGUCGUUCGCAUUGCUGUUCACCCAGAUUAUCAAGGGAUGGGCUAUGGCAGCCGUGCUCUGCAGCUGCUGCAGAUGUAC", "bound/input enrichment [ratio]": 0.229}
{"Strand": "GCUCCAAACCAGUUCUUCUGCAGAGUGGUGAUGUUAGCUUCCCCAGCUCCUCUCCAAGUCUAGCUUUUUCUGUCCUUCUGGCUCCAAGGUGCUCUGUGUCUGUGUGUGUGUGUCUGUCUG", "bound/input enrichment [ratio]": 1.48}
{"Strand": "GUCAAAAGUACCCUGAUGGAAAUUAUUUUUUUUAGUCUGCGUUUGACAGUUUUUCAUUUUAACAAGUACUACACAGGUUCUGUUUUGGUGUAGGUGUGAUGGCGCUUUUACUACCAGGUU", "bound/input enrichment [ratio]": 2.02}
{"Strand": "GCUAUAUUGACACUUGUAUGGUCAUCUUUGCCCCUCGUUACCUAUUAGAUAAUAAAUCAUCUCACAAGCUUGCAUUUGCACAAAGGGAAUUUGCUCGGGGACAGGGAACAGCCAAUCCCA", "bound/input enrichment [ratio]": 1.11}
{"data": "Series 4", "target": "Histone acetyltransferase KAT6A, winged helix 1, GST fusion (KAT6A, Homo sapiens, UniProt Q92794, residues 1-85)", "method": "protein binding microarray", "form": "double-stranded DNA, one strand shown", "sample": "in vitro", "tested at": "not given", "setting": "8-mer, flanks averaged, mean of 2 arrays, mostly near background", "baseline": "not given", "direction": "higher = stronger binding", "Target sequence (chain)": "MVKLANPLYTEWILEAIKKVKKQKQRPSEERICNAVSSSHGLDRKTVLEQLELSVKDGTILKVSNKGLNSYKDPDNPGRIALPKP"}
{"Strand": "CAAGGCAG", "E-score": -0.201}
{"Strand": "CCCCTACG", "E-score": -0.00581}
{"Strand": "CACCACTA", "E-score": -0.24}
{"Strand": "CTAACGCC", "E-score": 0.153}
{"Strand": "CGCGTTTA", "E-score": 0.261}
{"Strand": "GGGCCGCA", "E-score": 0.363}
{"Strand": "CACGATGG", "E-score": 0.0311}
{"Strand": "ATGTTCCG", "E-score": 0.152}
{"Strand": "CGGCAAAC", "E-score": 0.333}
{"Strand": "ACAACCGT", "E-score": -0.00222}
{"Strand": "ATCATTAG", "E-score": -0.103}
{"Strand": "ATGTGTGG", "E-score": -0.235}
{"Strand": "AAATGAAT", "E-score": -0.356}
{"Strand": "CCGTGCAA", "E-score": 0.16}
{"Strand": "CGACGTTA", "E-score": -0.0108}
{"Strand": "GCACCCGC", "E-score": 0.377}
{"Strand": "GTCAATAA", "E-score": -0.0799}
{"Strand": "ACCTCACT", "E-score": 0.0459}
{"Strand": "GACCGTCC", "E-score": 0.266}
{"Strand": "CCCCCTCA", "E-score": -0.302}
{"Strand": "ATGCAAGG", "E-score": 0.00263}
{"note": "For quick reference, copied from above (series 3):"}
{"Strand": "GCAAAAGUUUAUAUCAUAUUGGAUCAACCUGUGACUGCUUUAAAUCUAUUUAAACAAGGCUUAGAUAAGUUUCCAGGAGAGGUGACCCUGCUUUGUGGAAUUGCCAGGAUCUAUGAGGAA", "bound/input enrichment [ratio]": 0.297}
{"Strand": "GACCUGUCUUCUCUUGUAUCAGCCAGGGACAGAGAAUCACAAGGACAUCUCCAUUGAGAAGCAGAAGGGCCUGGGAAGCCUCCAUUGGGGAUGUGUCUAUGAGGGAGUGUCAGCCACUCC", "bound/input enrichment [ratio]": 0.395}
{"Strand": "GCUAUAUUGACACUUGUAUGGUCAUCUUUGCCCCUCGUUACCUAUUAGAUAAUAAAUCAUCUCACAAGCUUGCAUUUGCACAAAGGGAAUUUGCUCGGGGACAGGGAACAGCCAAUCCCA", "bound/input enrichment [ratio]": 1.11}
{"Strand": "GGUUGUUUGUUUGUUUGUUUGUUUUGCCGCCCUGGACACAUGUUUGCCUCCUCCAAGAAUUUCUGCGGGGAUUUGUAUCCCAUGCCUUCGUCUUCUCCUCCCCGUCCAACUCCCUGGAGA", "bound/input enrichment [ratio]": 0.809}
{"Strand": "CUCUCCCCUGAUAUCUGGAUGUAUAUUCUGCUGGCUUACUUGGGUGUCAGUUGUGUGCUCUUUGUCAUAGCCAGGUUUAGUCCUUAUGAGUGGUAUAAUCCACACCCUUGCAACCCUGAC", "bound/input enrichment [ratio]": 1.22}
